Published values of several laboratories.
Compare with care: the assays were run in different laboratories.
B1: POMP (Homo sapiens, UniProt Q9Y244); chain MNARGLGSELKDSIPVTELSASGPFESHDLLRKGFSCVKNELLPSHPLELSEKNFQLNQDKMNFSTLRNIQGLFAPLKLQMEFKAVQQVQRLPFLSSSNLSLDVLRGNDETIGFEDILNDPSQSEVMGEPHLMVEYKLGLL
B2: EFR3B 716-787 (Homo sapiens, UniProt Q9Y2G0); chain VPAEEITYETLKKAIVDSVAVEEQERERRRQVVEKFQKAPFEEIAAHCGARASLLQSKLNQIFEITIRPPPS
B3: POL32 1-350 (Saccharomyces cerevisiae, UniProt P47110); chain MDQKASYFINEKLFTEVKPVLFTDLIHHLKIGPSMAKKLMFDYYKQTTNAKYNCVVICCYKDQTIKIIHDLSNIPQQDSIIDCFIYAFNPMDSFIPYYDIIDQKDCLTIKNSYELKVSESSKIIERTKTLEEKSKPLVRPTARSKTTPEETTGRKSKSKDMGLRSTALLAKMKKDRDDKETSRQNELRKRKEENLQKINKQNPEREAQMKELNNLFVEDDLDTEEVNGGSKPNSPKETDSNDKDKNNDDLEDLLETTAEDSLMDVPKIQQTKPSETEHSKEPKSEEEPSSFIDEDGYIVTKRPATSTPPRKPSPVVKRALSSSKKQETPSSNKRLKKQGTLESFFKRKAK
B4: DOT1L 1-420 (Homo sapiens, UniProt Q8TEK3); chain MGEKLELRLKSPVGAEPAVYPWPLPVYDKHHDAAHEIIETIRWVCEEIPDLKLAMENYVLIDYDTKSFESMQRLCDKYNRAIDSIHQLWKGTTQPMKLNTRPSTGLLRHILQQVYNHSVTDPEKLNNYEPFSPEVYGETSFDLVAQMIDEIKMTDDDLFVDLGSGVGQVVLQVAAATNCKHHYGVEKADIPAKYAETMDREFRKWMKWYGKKHAEYTLERGDFLSEEWRERIANTSVIFVNNFAFGPEVDHQLKERFANMKEGGRIVSSKPFAPLNFRINSRNLSDIGTIMRVVELSPLKGSVSWTGKPVSYYLHTIDRTILENYFSSLKNPKLREEQEAARRRQQRESKSNAATPTKGPEGKVAGPADAPMDSGAEEEKAGAATVKKPSPSKARKKKLNKKGRKMAGRKRGRPKKMNTA
B5: PRP40 351-415 (Saccharomyces cerevisiae, UniProt P33203); chain NYTRDRIARDNFKSLLREVPIKIKANTRWSDIYPHIKSDPRFLHMLGRNGSSCLDLFLDFVDEQR
B6: Sgip1 69-156 (Mus musculus, UniProt Q8VD37); sequence looked up; chain AEIDWERYNSPELDEEGYSIRPEEPGSTKGKHFYSSSESEEEEESHKKFNIKIKPLQSKDVLKNAATVDELKASIGNIALSPSPVRKS
B7: ELM1 S605A/S604A/S519A/T463A/S424A/S422A/S324A (Saccharomyces cerevisiae, UniProt P32801); sequence looked up; chain MSPRQLIPTLIPEWAPLSQQSCIREDELDSPPITPTSQTSSFGSSFSQQKPTYSTIIGENIHTILDEIRPYVKKITVSDQDKKTINQYTLGVSAGSGQFGYVRKAYSSTLGKVVAVKIIPKKPWNAQQYSVNQVMRQIQLWKSKGKITTNMSGNEAMRLMNIEKCRWEIFAASRLRNNVHIVRLIECLDSPFSESIWIVTNWCSLGELQWKRDDDEDILPQWKKIVISNCSVSTFAKKILEDMTKGLEYLHSQGCIHRDIKPSNILLDEEEKVAKLSDFGSCIFTPQSLPFSDANFEDCFQRELNKIVGTPAFIAPELCHLGNAKRDFVTDGFKLDIWSLGVTLYCLLYNELPFFGENEFETYHKIIEVSLSSKINGNTLNDLVIKRLLEKDVTLRISIQDLVKVLSRDQPIDSRNHSQISASAVNPVRNEGPVRRFFGRLLTKKGKKKTSGKGKDKVLVSAASKVTPSIHIDEEPDKECFSTTVLRSSPDSSDYCSSLGEEAIQVTDFLDTFCRSNEALPNLTVNNDKQNSDMKTDRSESSSHSSLKIPTPIKAMIRLKSSPKENGNRTHINCSQDKPSSPLMDRTVGKRTVNNSGARKLAHAANILNFKAYINSEDSDIRETVEDVKTYLNFADNGQI
B8: CNOT2 350-540 (Homo sapiens, UniProt Q9NZN8); sequence looked up; chain MVTDQFGMIGLLTFIRAAETDPGMVHLALGSDLTTLGLNLNSPENLYPKFASPWASSPCRPQDIDFHVPSEYLTNIHIRDKLAAIKLGRYGEDLLFYLYYMNGGDVLQLLAAVELFNRDWRYHKEERVWITRAPGMEPTMKTNTYERGTYYFFDCLNWRKVAKEFHLEYDKLEERPHLPSTFNYNPAQQAF
B9: VPS71 (Saccharomyces cerevisiae, UniProt Q03433); sequence looked up; chain MKALVEEIDKKTYNPDIYFTSLDPQARRYTSKKINKQGTISTSRPVKRINYSLADLEARLYTSRSEGDGNSISRQDDRNSKNSHSFEERYTQQEILQSDRRFMELNTENFSDLPNVPTLLSDLTGVPRDRIESTTKPISQTSDGLSALMGGSSFVKEHSKYGHGWVLKPETLREIQLSYKSTKLPKPKRKNTNRIVALKKVLSSKRNLHSFLDSALLNLMDKNVIYHNVYNKRYFKVLPLITTCSICGGYDSISSCVNCGNKICSVSCFKLHNETRCRNR
B10: MED15 residues 7-659 (Saccharomyces cerevisiae); chain GSQDKDTLSNAERAKNVNGLLQVLMDINTLNGGSSDTADKIRIHAKNFEAALFAKSSSKKEYMDSMNEKVAVMRNTYNTRKNAVTAAAANNNIKPVEQHHINNLKNSGNSANNMNVNMNLNPQMFLNQQAQARQQVAQQLRNQQQQQQQQQQQQRRQLTPQQQQLVNQMKVAPIPKQLLQRIPNIPPNINTWQQVTALAQQKLLTPQDMEAAKEVYKIHQQLLFKARLQQQQAQAQAQANNNNNGLPQNGNINNNINIPQQQQMQPPNSSANNNPLQQQSSQNTVPNVLNQINQIFSPEEQRSLLQEAIETCKNFEKTQLGSTMTEPVKQSFIRKYINQKALRKIQALRDVKNNNNANNNGSNLQRAQNVPMNIIQQQQQQNTNNNDTIATSATPNAAAFSQQQNASSKLYQMQQQQQAQAQAQAQAQAQAQAQAQAQAAQAAQAQAQAQAQAQAQAQAQAQAQAQAQAQAQAQAQAHAQHQPSQQPQQAQQQPNPLHGLTPTAKDVEVIKQLSLDASKTNLRLTDVTNSLSNEEKEKIKMKLKQGQKLFVQVSNFAPQVYIITKNENFLKEVFQLRIFVKEILEKCAEGIFVVKLDTVDRLIIKYQKYWESMRIQILRRQAILRQQQQMANNNGNPGTTSTGNNNNIATQQNMQ
B11: mel-28 954-1189 (Caenorhabditis elegans, UniProt Q18508); sequence looked up; chain PEVFASVNDKTERKRKSSQFGEDDESSVSSSQYVPPTAKRIQQWKSAVESVANNSSINSITSPDSHQNAEINMMIATPARYYKRHNEEENVQDGFLSPAGNRPPPVSAHNSILKTAKGGQSASRGRIRFRADVPRGADESIEDNGRKGLALNFAILEDEEEETMTIRKSRSMGKHDEEKDSEKNVVDEMEEVKDQEQENDECIESEKTFENQDDFEVLEDTSAPEAANTENGSETP
B12: ARHGEF40 Y1214A/L1217E/L1218E (Homo sapiens, UniProt Q8TER5); sequence looked up; chain MEPEPVEDCVQSTLAALYPPFEATAPTLLGQVFQVVERTYREDALRYTLDFLVPAKHLLAKVQQEACAQYSGFLFFHEGWPLCLHEQVVVQLAALPWQLLRPGDFYLQVVPSAAQAPRLALKCLAPGGGRVQEVPVPNEACAYLFTPEWLQGINKDRPTGRLSTCLLSAPSGIQRLPWAELICPRFVHKEGLMVGHQPSTLPPELPSGPPGLPSPPLPEEALGTRSPGDGHNAPVEGPEGEYVELLEVTLPVRGSPTDAEGSPGLSRVRTVPTRKGAGGKGRHRRHRAWMHQKGLGPRGQDGARPPGEGSSTGASPESPPGAEAVPEAAVLEVSEPPAEAVGEASGSCPLRPGELRGGGGGGQGAEGPPGTPRRTGKGNRRKKRAAGRGALSRGGDSAPLSPGDKEDASHQEALGNLPSPSEHKLPECHLVKEEYEGSGKPESEPKELKTAGEKEPQLSEACGPTEEGAGERELEGPGLLCMAGHTGPEGPLSDTPTPPLETVQEGKGDNIPEEALAVSVSDHPDVAWDLMASGFLILTGGVDQSGRALLTITPPCPPEEPPPSRDTLNTTLHYLHSLLRPDLQTLGLSVLLDLRQAPPLPPALIPALSQLQDSGDPPLVQRLLILIHDDLPTELCGFQGAEVLSENDLKRVAKPEELQWELGGHRDPSPSHWVEIHQEVVRLCRLCQGVLGSVRQAIEELEGAAEPEEEEAVGMPKPLQKVLADPRLTALQRDGGAILMRLRSTPSSKLEGQGPATLYQEVDEAIHQLVRLSNLHVQQQEQRQCLRRLQQVLQWLSGPGEEQLASFAMPGDTLSALQETELRFRAFSAEVQERLAQAREALALEENATSQKVLDIFEQRLEQVESGLHRALRLQRFFQQAHEWVDEGFARLAGAGPGREAVLAALALRRAPEPSAGTFQEMRALALDLGSPAALREWGRCQARCQELERRIQQHVGEEASPRGYRRRRADGASSGGAQWGPRSPSPSLSSLLLPSSPGPRPAPSHCSLAPCGEDYEEEGPELAPEAEGRPPRAVLIRGLEVTSTEVVDRTCSPREHVLLGRARGPDGPWGVGTPRMERKRSISAQQRLVSELIACEQDYVATLSEPVPPPGPELTPELRGTWAAALSARERLRSFHRTHFLRELQGCATHPLRIGACFLRHGDQFSLYAQYVKHRHKLENGLAALSPLSKGSMEAGPYLPRALQQPLEQLTRAGREEEELLREAGPELSSECRALGAAVQLLREQEARGRDLLAVEAVRGCEIDLKEQGQLLHRDPFTVICGRKKCLRHVFLFEHLLLFSKLKGPEGGSEMFVYKQAFKTADMGLTENIGDSGLCFELWFRRRRAREAYTLQATSPEIKLKWTSSIAQLLWRQAAHNKELRVQQMVSMGIGNKPFLDIKALGERTLSALLTGRAARTRASVAVSSFEHAGPSLPGLSPGACSLPARVEEEAWDLDVKQISLAPETLDSSGDVSPGPRNSPSLQPPHPGSSTPTLASRGILGLSRQSHARALSDPTTPL
Chain of UniProt Q9DBG3 (whole entry, looked up): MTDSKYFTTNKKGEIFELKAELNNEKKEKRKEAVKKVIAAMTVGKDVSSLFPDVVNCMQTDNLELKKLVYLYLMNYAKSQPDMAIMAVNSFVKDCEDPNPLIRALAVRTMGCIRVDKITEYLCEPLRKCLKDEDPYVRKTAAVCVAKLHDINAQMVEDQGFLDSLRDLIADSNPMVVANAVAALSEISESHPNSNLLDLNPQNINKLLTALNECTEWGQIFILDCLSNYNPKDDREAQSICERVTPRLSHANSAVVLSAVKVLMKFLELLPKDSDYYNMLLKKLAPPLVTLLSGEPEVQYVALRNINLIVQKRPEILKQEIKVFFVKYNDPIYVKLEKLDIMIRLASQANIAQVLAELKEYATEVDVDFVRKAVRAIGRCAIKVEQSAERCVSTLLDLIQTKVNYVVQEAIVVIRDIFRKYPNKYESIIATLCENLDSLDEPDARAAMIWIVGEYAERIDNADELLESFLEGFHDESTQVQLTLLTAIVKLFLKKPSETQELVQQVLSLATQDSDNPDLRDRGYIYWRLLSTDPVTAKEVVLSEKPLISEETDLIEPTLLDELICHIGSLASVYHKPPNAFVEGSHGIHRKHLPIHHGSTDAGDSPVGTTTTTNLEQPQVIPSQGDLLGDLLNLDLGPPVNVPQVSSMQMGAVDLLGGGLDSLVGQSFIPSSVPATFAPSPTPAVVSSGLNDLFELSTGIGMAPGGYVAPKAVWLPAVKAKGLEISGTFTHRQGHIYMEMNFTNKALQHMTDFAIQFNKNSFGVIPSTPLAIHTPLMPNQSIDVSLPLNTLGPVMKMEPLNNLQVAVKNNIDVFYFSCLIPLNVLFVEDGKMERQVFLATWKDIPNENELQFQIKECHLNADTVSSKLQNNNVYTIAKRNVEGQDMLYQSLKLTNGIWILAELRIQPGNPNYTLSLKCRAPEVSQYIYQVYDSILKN
Chain of UniProt O15085 (whole entry, unmodified, looked up): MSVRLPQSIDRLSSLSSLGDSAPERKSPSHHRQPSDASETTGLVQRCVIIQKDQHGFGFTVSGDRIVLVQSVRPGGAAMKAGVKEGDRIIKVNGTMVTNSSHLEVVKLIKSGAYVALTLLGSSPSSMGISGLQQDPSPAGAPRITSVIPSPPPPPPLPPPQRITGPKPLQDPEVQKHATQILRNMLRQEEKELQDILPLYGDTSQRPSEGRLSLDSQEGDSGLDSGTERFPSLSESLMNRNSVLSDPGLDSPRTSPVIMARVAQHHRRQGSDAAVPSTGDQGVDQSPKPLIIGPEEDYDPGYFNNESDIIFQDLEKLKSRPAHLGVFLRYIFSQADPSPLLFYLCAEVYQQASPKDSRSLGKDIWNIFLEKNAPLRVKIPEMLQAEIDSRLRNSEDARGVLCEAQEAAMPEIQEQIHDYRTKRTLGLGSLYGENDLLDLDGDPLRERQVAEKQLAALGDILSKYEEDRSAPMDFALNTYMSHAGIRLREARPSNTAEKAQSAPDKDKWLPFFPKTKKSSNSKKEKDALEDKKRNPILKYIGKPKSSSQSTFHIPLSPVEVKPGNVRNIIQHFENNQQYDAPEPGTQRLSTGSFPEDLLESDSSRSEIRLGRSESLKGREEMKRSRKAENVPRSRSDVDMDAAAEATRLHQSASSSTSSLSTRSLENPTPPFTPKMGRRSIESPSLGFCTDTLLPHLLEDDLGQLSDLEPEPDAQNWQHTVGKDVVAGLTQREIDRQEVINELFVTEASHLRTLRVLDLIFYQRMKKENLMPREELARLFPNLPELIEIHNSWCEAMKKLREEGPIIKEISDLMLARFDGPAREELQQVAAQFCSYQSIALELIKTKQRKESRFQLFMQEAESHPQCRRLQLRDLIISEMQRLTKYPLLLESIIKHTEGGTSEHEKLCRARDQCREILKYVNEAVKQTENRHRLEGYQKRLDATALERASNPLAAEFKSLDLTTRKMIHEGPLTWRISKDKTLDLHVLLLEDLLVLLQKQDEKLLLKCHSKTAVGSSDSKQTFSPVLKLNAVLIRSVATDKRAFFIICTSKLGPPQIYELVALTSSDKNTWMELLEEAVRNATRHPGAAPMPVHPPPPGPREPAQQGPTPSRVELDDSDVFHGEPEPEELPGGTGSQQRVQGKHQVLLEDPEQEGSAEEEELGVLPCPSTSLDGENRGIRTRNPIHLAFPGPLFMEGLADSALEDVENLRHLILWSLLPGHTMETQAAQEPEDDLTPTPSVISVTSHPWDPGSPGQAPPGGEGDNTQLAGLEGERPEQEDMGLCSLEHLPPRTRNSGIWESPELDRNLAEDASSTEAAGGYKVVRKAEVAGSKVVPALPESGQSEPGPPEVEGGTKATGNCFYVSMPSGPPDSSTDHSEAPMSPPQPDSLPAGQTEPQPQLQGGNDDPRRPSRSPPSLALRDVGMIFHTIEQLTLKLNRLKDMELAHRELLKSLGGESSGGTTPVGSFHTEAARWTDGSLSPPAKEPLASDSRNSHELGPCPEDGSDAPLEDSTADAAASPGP
Chain of UniProt P53207 (whole entry, looked up): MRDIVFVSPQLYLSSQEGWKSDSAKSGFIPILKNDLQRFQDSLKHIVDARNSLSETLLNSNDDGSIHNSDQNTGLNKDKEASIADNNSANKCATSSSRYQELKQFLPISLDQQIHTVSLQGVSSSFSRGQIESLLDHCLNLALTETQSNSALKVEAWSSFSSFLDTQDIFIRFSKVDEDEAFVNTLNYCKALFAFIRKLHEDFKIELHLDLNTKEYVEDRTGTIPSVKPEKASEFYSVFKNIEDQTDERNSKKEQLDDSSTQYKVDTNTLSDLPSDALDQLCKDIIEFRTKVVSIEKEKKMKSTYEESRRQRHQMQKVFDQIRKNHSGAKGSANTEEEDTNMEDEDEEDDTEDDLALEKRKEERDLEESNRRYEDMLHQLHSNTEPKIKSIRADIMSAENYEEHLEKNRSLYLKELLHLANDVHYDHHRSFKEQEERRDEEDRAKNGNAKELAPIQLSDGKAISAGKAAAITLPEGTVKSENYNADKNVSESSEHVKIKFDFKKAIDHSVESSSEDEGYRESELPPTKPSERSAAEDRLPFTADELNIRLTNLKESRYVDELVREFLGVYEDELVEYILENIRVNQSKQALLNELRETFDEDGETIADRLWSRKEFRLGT
Chain of UniProt Q12263 (whole entry, looked up): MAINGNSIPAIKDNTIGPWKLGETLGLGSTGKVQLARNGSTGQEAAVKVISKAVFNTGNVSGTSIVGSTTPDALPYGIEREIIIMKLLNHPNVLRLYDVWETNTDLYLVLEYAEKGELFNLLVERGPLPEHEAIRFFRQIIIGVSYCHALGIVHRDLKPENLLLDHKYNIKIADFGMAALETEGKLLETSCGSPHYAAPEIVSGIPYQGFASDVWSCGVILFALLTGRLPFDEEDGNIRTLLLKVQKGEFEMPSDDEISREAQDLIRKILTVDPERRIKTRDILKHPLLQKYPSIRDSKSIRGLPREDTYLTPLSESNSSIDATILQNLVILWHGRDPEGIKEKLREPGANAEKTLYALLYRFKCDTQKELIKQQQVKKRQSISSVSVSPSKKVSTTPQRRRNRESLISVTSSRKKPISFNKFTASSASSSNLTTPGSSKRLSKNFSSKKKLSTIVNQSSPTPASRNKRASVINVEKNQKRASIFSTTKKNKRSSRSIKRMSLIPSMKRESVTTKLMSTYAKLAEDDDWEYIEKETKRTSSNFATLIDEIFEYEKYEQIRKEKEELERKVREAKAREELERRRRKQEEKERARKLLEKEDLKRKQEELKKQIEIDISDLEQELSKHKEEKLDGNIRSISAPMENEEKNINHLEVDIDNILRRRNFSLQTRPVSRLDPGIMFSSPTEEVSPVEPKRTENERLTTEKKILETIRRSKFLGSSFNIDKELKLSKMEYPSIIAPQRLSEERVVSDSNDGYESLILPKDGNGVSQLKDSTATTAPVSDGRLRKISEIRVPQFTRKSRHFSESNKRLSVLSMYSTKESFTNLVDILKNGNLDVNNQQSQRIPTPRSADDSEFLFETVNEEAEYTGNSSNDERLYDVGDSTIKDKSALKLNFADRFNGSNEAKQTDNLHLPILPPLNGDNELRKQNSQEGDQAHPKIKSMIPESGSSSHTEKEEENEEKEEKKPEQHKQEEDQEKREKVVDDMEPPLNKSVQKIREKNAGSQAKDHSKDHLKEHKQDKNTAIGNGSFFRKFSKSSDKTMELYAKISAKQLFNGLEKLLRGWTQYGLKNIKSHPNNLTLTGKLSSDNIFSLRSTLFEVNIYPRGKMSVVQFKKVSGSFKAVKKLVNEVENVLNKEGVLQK
Chain of UniProt P48727 (whole entry, looked up): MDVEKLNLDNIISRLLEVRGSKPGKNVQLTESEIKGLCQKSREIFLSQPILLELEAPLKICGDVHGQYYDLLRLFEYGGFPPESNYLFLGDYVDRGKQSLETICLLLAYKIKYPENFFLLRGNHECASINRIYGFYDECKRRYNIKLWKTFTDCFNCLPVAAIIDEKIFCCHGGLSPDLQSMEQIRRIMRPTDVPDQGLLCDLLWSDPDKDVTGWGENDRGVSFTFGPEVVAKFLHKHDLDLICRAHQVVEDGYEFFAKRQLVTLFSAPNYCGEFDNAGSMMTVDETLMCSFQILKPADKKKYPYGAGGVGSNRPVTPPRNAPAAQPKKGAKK
Chain of UniProt P25787 (whole entry, looked up): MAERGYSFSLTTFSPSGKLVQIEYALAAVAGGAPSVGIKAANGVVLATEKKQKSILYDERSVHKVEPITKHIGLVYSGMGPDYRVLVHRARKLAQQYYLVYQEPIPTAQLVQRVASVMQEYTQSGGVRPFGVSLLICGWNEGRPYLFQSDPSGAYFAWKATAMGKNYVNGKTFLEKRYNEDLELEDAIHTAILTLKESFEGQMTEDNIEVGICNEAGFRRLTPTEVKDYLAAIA

B1 (POMP) — binding (PSMA2 (Homo sapiens, UniProt P25787); cryo-EM): binds
KESALRKQDLILLFDPLFR (TACC3 to 568 550-568 S558D/Y560I/K562L/L567F (Homo sapiens, UniProt Q9Y6A5); sequence looked up) — binding (CLTC 358-574 (Homo sapiens, UniProt Q00610); peptide array; peptide): binds
B2 (EFR3B 716-787) — binding (TTC7A/FAM126B 1-308; BLI): binds
B3 (POL32 1-350) — binding (REV1 (Saccharomyces cerevisiae, UniProt P12689); cryo-EM): binds
B4 (DOT1L 1-420) — binding (H3-3A fragment (Xenopus laevis); cryo-EM; added: SAH): binds
TKQTARKSTGGKA (H3 peptide residues 3-x 4-16 (UniProt P68431); K9me3) — binding (CBX7 8-62 L49D/D50C (Homo sapiens, UniProt O95931); array; peptide): binds
ARTKQTARKSTGGKAY (histone H3 residues 1-15; K9me3) — binding (ATRX 1-321 Y203A (Homo sapiens, UniProt P46100); ITC; peptide; 25 °C): binds
B5 (PRP40 351-415) — binding (SNU71 382-537 (Saccharomyces cerevisiae, UniProt P53207); pull-down): binds
B6 (Sgip1 69-156) — binding (Ap2b1 1-592 (Mus musculus, UniProt Q9DBG3); cryo-EM): binds
RQIVDAQAVCTRCKESADFWCFECEQLLCAKCFEAHQWFLKHEARPLAE (PML 120-168 (Homo sapiens, UniProt P29590); sequence looked up) — binding (UBE2I (Homo sapiens, UniProt P63279); SEC; not stated; 400 µM): binds
B7 — binding (GIN4 (Saccharomyces cerevisiae, UniProt Q12263); pull-down): binds
B8 (CNOT2 350-540) — binding (PUM1 589-1186 (Homo sapiens, UniProt Q14671); cross-linking): binds
B9 (VPS71) — binding (SWC3 (Saccharomyces cerevisiae, UniProt P31376); cryo-EM): binds
B10 (MED15 residues 7-659) — binding (Gcn4 fragment C262S (Saccharomyces cerevisiae); fluorescence polarisation): binds
B11 (mel-28 954-1189) — binding (gsp-2 (Caenorhabditis elegans, UniProt P48727); pull-down): binds
B12 (ARHGEF40 Y1214A/L1217E/L1218E) — binding (ARHGEF11 (Homo sapiens, UniProt O15085); co-IP): binds

For quick reference, copied from above:
B6 (Sgip1 69-156) — binding (Ap2b1 1-592 (Mus musculus, UniProt Q9DBG3); cryo-EM): binds
